Assay results pooled from the literature.
Each line is one published result; not all experiments were run side by side. Numbers after ± are the reported error.

| Compound | target or system | assay | system | setting | how to read | quantity | result |
| --- | --- | --- | --- | --- | --- | --- | --- |
| CC[C@H](C)[C@H](NC(=O)[C@H](CC(C)C)NC(=O)[C@H](Cc1c[nH]c2ccccc12)NC(=O)[C@H](CCC(N)=O)NC(=O)[C@@H](NC(=O)[C@H](Cc1ccccc1)NC(=O)[C@H](C)NC(=O)[C@H](CCCCNC(=O)COCCOCCNC(=O)COCCOCCNC(=O)CC[C@H](NC(=O)CCCCCCCCCCCCCCCCCCC(=O)O)C(=O)O)NC(=O)[C@H](CCC(N)=O)NC(=O)[C@H](C)NC(=O)[C@@H](NC(=O)[C@H](CCCCN)NC(=O)[C@H](CC(=O)O)NC(=O)[C@H](CC(C)C)NC(=O)C(C)(C)NC(=O)[C@@H](NC(=O)[C@H](CO)NC(=O)[C@H](Cc1ccc(O)cc1)NC(=O)[C@H](CC(=O)O)NC(=O)[C@H](CO)NC(=O)[C@@H](NC(=O)[C@H](Cc1ccccc1)NC(=O)[C@@H](NC(=O)CNC(=O)[C@H](CCC(=O)O)NC(=O)C(C)(C)NC(=O)[C@@H](N)Cc1ccc(O)cc1)[C@@H](C)O)[C@@H](C)O)[C@@H](C)CC)[C@@H](C)CC)C(C)C)C(=O)N[C@@H](C)C(=O)NCC(=O)NCC(=O)N1CCC[C@H]1C(=O)N[C@@H](CO)C(=O)N[C@@H](CO)C(=O)NCC(=O)N[C@@H](C)C(=O)N1CCC[C@H]1C(=O)N1CCC[C@H]1C(=O)N1CCC[C@H]1C(=O)N[C@@H](CO)C(N)=O |  |  | human, plasma | subcutaneous, 10.0 mg once weekly, week 15, multiple doses |  | terminal half-life | 132 h |
| NC(=O)c1ncn([C@@H]2O[C@H](CO)[C@@H](O)[C@H]2O)n1 | Lassa virus | viral replication |  | concentration not given, ZsGreen reporter virus, together with: cytidine, uridine, guanosine |  | reversal of antiviral activity | no effect |
| Nc1ncnc2c([C@@H]3N[C@H](CO)[C@@H](O)[C@H]3O)c[nH]c12 | Zaire ebolavirus | viral replication | HeLa, Kikwit | 200 µM |  | inhibition | 99.9% |
| Cc1cc(O[C@@H](CCC(F)(F)F)c2ccc(C(=O)NCCC(=O)O)cc2)cc(C)c1-c1ccc(C(C)(C)C)cc1 | SARS-CoV-2 | viral replication, high-content imaging screen |  | cell-based |  | EC50 | > 6.31 µM |
| Cc1cc(C)cc(-c2ccc(CN3CCCC3C(=O)NCc3cccc(F)c3)cc2)c1 (stereo not shown) | SARS-CoV-2 | cytopathic effect | USA_WA1/2020 | round 1, 5-point |  | maximum response | 78.3% |
| CC[C@H](C)[C@H](NC(=O)[C@H](CC(C)C)NC(=O)[C@H](Cc1c[nH]c2ccccc12)NC(=O)[C@H](CCC(N)=O)NC(=O)[C@@H](NC(=O)[C@H](Cc1ccccc1)NC(=O)[C@H](C)NC(=O)[C@H](CCCCNC(=O)COCCOCCNC(=O)COCCOCCNC(=O)CC[C@H](NC(=O)CCCCCCCCCCCCCCCCCCC(=O)O)C(=O)O)NC(=O)[C@H](CCC(N)=O)NC(=O)[C@H](C)NC(=O)[C@@H](NC(=O)[C@H](CCCCN)NC(=O)[C@H](CC(=O)O)NC(=O)[C@H](CC(C)C)NC(=O)C(C)(C)NC(=O)[C@@H](NC(=O)[C@H](CO)NC(=O)[C@H](Cc1ccc(O)cc1)NC(=O)[C@H](CC(=O)O)NC(=O)[C@H](CO)NC(=O)[C@@H](NC(=O)[C@H](Cc1ccccc1)NC(=O)[C@@H](NC(=O)CNC(=O)[C@H](CCC(=O)O)NC(=O)C(C)(C)NC(=O)[C@@H](N)Cc1ccc(O)cc1)[C@@H](C)O)[C@@H](C)O)[C@@H](C)CC)[C@@H](C)CC)C(C)C)C(=O)N[C@@H](C)C(=O)NCC(=O)NCC(=O)N1CCC[C@H]1C(=O)N[C@@H](CO)C(=O)N[C@@H](CO)C(=O)NCC(=O)N[C@@H](C)C(=O)N1CCC[C@H]1C(=O)N1CCC[C@H]1C(=O)N1CCC[C@H]1C(=O)N[C@@H](CO)C(N)=O |  |  | healthy subjects, single ascending dose | 8.0 mg, titre ≥1:20 |  | treatment-induced ADA positive subjects | 0% |
| CCN(CC)CCNC(=O)c1[nH]c2ccccc2c1Sc1ccc(Cl)cc1 | SARS-CoV-2 | cytopathic effect | USA_WA1/2020 | round 2, 5-point |  | maximum response | 105% |
| Cc1nc2n(n1)CC(=O)N[C@@H](C(C)C)CN(CC(C)C)CC(=O)N[C@@H](CC(C)C)c1nc(cs1)C(=O)N[C@H]2Cc1ccccc1 | Lassa mammarenavirus | viral replication | Huh-7 | 10 µM, 72 h |  | remaining activity | 84% |
| CCc1c(C(=O)C(N)=O)c2c(OCC(=O)O)cccc2n1Cc1ccccc1 | Daboia russelii |  | C2C12 | 100 µM, together with: Daboia russelii venom MH | relative to: venom alone | viability difference | -59.4% |
| Nc1ncnc2c1ncn2[C@H]1C[C@H](O)[C@@H](COP(=O)(O)OP(=O)(O)OP(=O)(O)O)O1 | Gag-Pol polyprotein, reverse transcriptase (gag-pol, Human immunodeficiency virus type 1 group M subtype B, UniProt P04585, K653R) | substrate |  | K66R mutant, together with: matched T:A primer template |  | kcat | 0.237 ± 0.0202 s⁻¹ |
| Cn1cnc(Cn2c(=O)[nH]/c(=N\c3cc4cn(C)nc4cc3Cl)n(Cc3cc(F)c(F)cc3F)c2=O)n1 |  |  | human, severe renal impairment, plasma | oral, 375 mg single dose, 3 h |  | unbound fraction | 0.0172 |
| COc1ccc(CCNC(=O)c2cc(Nc3ccccc3)nc3ccccc23)cc1OC | SARS-CoV-2 | cytopathic effect | USA_WA1/2020 | round 1, 5-point |  | maximum response | 46.4% |
| Cc1cnccc1N1CCCN(c2nc(N(C)C)nc3c2CCNC3)CC1 | Lassa mammarenavirus | viral replication | Huh-7 | 10 µM, 72 h |  | remaining activity | 42% |

Excerpt of the above:
| Compound | target or system | assay | system | setting | how to read | quantity | result |
| --- | --- | --- | --- | --- | --- | --- | --- |
| NC(=O)c1ncn([C@@H]2O[C@H](CO)[C@@H](O)[C@H]2O)n1 | Lassa virus | viral replication |  | concentration not given, ZsGreen reporter virus, together with: cytidine, uridine, guanosine |  | reversal of antiviral activity | no effect |
| Nc1ncnc2c([C@@H]3N[C@H](CO)[C@@H](O)[C@H]3O)c[nH]c12 | Zaire ebolavirus | viral replication | HeLa, Kikwit | 200 µM |  | inhibition | 99.9% |
